Assay results from different studies.
Every numbered part comes from another study and shows a few of its results, in no order.

Sample 1 — method: RNA Bind-n-Seq; form: RNA; sample: in vitro; tested at: 365 nM; reference: no-protein control; reading: higher = stronger binding
Target: RNA binding protein fox-1 homolog 2, RRM domain, GST-SBP tag (RBFOX2, Homo sapiens, UniProt O43251-10, residues 100-194)
Setting: natural RNA segment, single round, ends assumed
Residues (chain): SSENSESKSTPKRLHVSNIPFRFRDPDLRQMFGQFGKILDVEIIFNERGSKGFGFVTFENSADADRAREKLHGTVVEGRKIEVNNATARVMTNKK
Sequence	RBNS enrichment (R)
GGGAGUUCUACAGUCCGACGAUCUGACGCUCAUCUGCGUCUCCGUCUGCUAGGUGGUCGGUGAUAAAUUCAAAUGUAUCAGAUCUCUGUGCCAGAUACUCAUAUUAGUAUACCCUGUUCAAAGGAGAAUGGUGUGGAAUUCUCGGGUGCCAA	0.317
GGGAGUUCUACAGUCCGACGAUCCACUCUGAUUCAGAAACACACUUCUACCUCUUUACUGUUAACUCUUAACAGAUGCAGUCAGCAGUUUCUGGGCACUUCUCUCAGUAGGUGCCUCAUGCUGACUUCUCCAGUGGAAUUCUCGGGUGCCAA	0.375
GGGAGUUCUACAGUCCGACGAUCGGACUCUGUCAGGGGACUCUGUCAUCGCUUCCCUUCCUCAGAGGACAGCACAGAGCCGCGGCGUACACACUGACGUACCCACCACCAACAGAUUGAGGCACUGACGCAGCUGGAAUUCUCGGGUGCCAA	0.356
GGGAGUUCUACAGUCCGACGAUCUGGGUGAACAUGGUUUUUUUGGAAUCAACUGAGAUAAUGCUAUUUCAAUAGCGGCUGGCUUUUUGUGAUUCAGUAACUUAAAUAUUGCCAGUGACUGAGGAUCCCCUCCAUGGAAUUCUCGGGUGCCAA	0.404
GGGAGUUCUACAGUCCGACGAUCUCCAUCAGAUGCUUGGGCCUCCUCCAUCAGAUGCCUGGGCCUCCUCCAUCAGAUGUCUGGGCCUCCUCCAUCAGAUGCCUGGGCCUCCUCCAUCAGAUGCCUGGGCCUCCUGGAAUUCUCGGGUGCCAA	0.345
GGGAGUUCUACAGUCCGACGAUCGCAUUUUACUGUACAUCACAAGGCCAUUUUUAUAUACGGACACUUUUAAUAAGCUAUUUCAAUUUGUUUGUUAUAUUAAGUUGACUUUAUCAAAUACACAAAGAUUUUUUUGGAAUUCUCGGGUGCCAA	0.956
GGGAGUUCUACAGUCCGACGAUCGCAAAGAGAUAGUCUAAAUGGCCUCUCAGCUUGGUAUGUGAAAAUGAGAUCACAUACUUUUUAAAUCCAAAUACAAAAGCAUAGUCUCUGCAAGAUUUUGUUCUUUGAAUUGGAAUUCUCGGGUGCCAA	0.312
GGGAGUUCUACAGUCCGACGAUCGUGAUCAUGGCUUCUCUAGCUGAACUUGGCUGAGAACCUUUGACAAGGGAUUGGCACCAAGACCAGGCAGCCCUUGAUUUCCUCGCUCUCUGGAGCUAGUCAGUGUCCUAUGGAAUUCUCGGGUGCCAA	0.371

Sample 2 — method: aptamer microarray, sandwich; form: DNA with 2'F-ANA; sample: in vitro; tested at: 200 nM; together with: Cy3 exosite-II aptamer, 400 nM; reading: higher = stronger binding; sequence: GGTTGGTGTGGTTGG
Target: Prothrombin, mature alpha-thrombin (F2, Homo sapiens, UniProt P00734)
Setting: whole 15-mer aptamer, many near background
Modification	mean fluorescence intensity [a.u.]
2'F-ANA at 1 2 3 6 7 8 10 11 12 13 14 15	69.4
2'F-ANA at 3 4 6 12 13	768
2'F-ANA at 5 6 9 10	46.7
2'F-ANA at 4 5 7 8 10 13 15	56.2
2'F-ANA at 2 3 4 5 7 8 11 12 13	115
2'F-ANA at 1 3 4 5 9 12 13 15	70.8
2'F-ANA at 2 3 6 9 11 13 15	563
2'F-ANA at 1 3 4 5 6 7 8 9 10 11 13 15	52.1
2'F-ANA at 2 3 5 8 9 10 14 15	147
2'F-ANA at 1 2 5 8 9 12 13 14	45.4
2'F-ANA at 2 7 8 10 12 13 15	203
2'F-ANA at 2 7 9 11 12 13	573
2'F-ANA at 1 2 3 4 5 7 10 11 12 13 14 15	48.7
2'F-ANA at 1 3 4 6 8 10 12	83.9
2'F-ANA at 1 2 3 4 6 7 10 14 15	71.4
2'F-ANA at 3 5 7 10 12 14 15	67
2'F-ANA at 6 7 9 11 12 14 15	178
2'F-ANA at 2 3 5 8 9 11 12 13	150
2'F-ANA at 1 4 6 9 14	46

Sample 3 — method: protein binding microarray; form: double-stranded DNA, one strand shown; sample: in vitro; tested at: not given; reference: not given; reading: higher = stronger binding
Target: Histone acetyltransferase KAT6A, both winged helices, GST fusion (KAT6A, Homo sapiens, UniProt Q92794, residues 1-181)
Setting: 8-mer, flanks averaged, mean of 2 arrays, mostly near background
Construct (chain): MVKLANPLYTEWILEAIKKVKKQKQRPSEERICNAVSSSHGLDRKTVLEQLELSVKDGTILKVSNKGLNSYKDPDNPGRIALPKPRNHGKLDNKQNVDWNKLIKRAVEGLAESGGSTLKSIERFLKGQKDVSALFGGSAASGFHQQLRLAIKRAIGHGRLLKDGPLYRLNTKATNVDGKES
Sequence	E-score
GCCAAGCA	-0.203
ATGCGCTG	0.239
AATACTTC	-0.213
AGATTCAT	-0.131
ACTATCGA	0.07
ATAAAGGG	-0.0293
AGGTTTGC	-0.161
ATGGATCA	-0.0562
CGCGTTAA	0.274
CGGTGTTA	0.161
GCGCCGAC	0.337
CCGGCCCC	0.102
AGTTCTAT	-0.0991
ACGTGTGC	-0.109
GTGCACTA	0.0651
GGCTGTAC	-0.00805
CGCAATCC	0.197
ACGCCTTG	0.0715
AAGCGACT	-0.0944
AACGGTCG	0.175
GAACAATA	0.0589
AATTGGGG	-0.211
AAATCCTC	-0.175
GCACTTTA	-0.0314
ACTTTAGA	-0.0591

Sample 4 — method: RNA Bind-n-Seq; form: RNA; sample: in vitro; tested at: not given; reference: input RNA pool; reading: higher = stronger binding
Target: RING finger protein unkempt homolog, zinc fingers 1-6, GST-SBP tag (UNK, Homo sapiens, UniProt Q9C0B0, residues 30-357)
Setting: RNA with constant flanks, human and mouse sites, ends assumed
Construct (chain): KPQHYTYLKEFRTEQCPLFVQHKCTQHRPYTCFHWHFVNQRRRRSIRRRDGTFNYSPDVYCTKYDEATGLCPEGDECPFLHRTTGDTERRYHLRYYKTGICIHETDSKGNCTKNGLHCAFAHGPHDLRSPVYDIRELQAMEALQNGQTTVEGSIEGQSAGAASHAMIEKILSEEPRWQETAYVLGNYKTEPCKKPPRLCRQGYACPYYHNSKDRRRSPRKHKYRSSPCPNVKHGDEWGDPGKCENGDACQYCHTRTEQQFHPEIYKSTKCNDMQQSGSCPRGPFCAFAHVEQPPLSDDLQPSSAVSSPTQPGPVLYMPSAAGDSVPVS
Sequence	bound/input enrichment [ratio]
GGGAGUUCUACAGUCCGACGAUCCUCCCCUACGCGCUACACAAGUGGAGCUCCUUUUCCUCCACCUACCUUCCCGAGAACAUUUUAGUGGACAAACCAAAUGACCAAUCUUCAAGAUGGUCUUCAGAGAGCAACUAUCCUCCCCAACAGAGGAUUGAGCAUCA	1.02
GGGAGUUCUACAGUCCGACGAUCGCCAGGGGAGUUCUCAAAUGUGACAUCACAGACCUUCAGAUCAUUUGUUCUUUGGGAUAUAGCAUUCUUCUCAUGGUCACAUGUACUGUGUAUGCCAUCAAGACUCGGGGUGUACCAGAGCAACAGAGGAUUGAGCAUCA	0.328
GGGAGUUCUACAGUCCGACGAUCAGGUCUGACCGAGUUAAGAGCGUGGAUUUGCAUCCCACAGAGCCAUGGAUGUUGGCUAGUCUUUACAAUGGCAGUGUGUGUGUUUGGAAUCAUGAAACUCAGACACUGGUGAAGACGUUUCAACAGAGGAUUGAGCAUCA	0.102
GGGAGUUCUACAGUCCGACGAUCAAAGAAAGCCCAGCUGUUGCAGAAACCUCAGCUACAAGUGAGGACCUCAGUUUGAAAUGCUGUUCUUCUGAUACCAAUGGCUCUCCUUUGGCCAAUAUAUCCAAAAGUGGGAAAGGAGAGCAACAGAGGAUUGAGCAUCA	0.1
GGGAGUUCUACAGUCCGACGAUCGACAUGCUGUACACUGAGACAGACUUGGAAGAAAGCAUGGACAAAAUCGAAACCAUCAAUUUUCAUGAAGUUAAGGAAGUUGCAGGAAUCAAGUUCUGGUGUUACCAUGCCGGCCACGUCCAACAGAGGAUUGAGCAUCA	0.141
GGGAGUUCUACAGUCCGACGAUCCAUAUUUUAGAGGUAAUCAUGUCUUCUAGAUUACUUGUGUGCAUUUGAUUGGGCUUCUUGUUUAGGGUCCCUUUUAAAAUUAAUUCAUUAGAUUGAAAAAUGUAUUCUAUAUUUCUGAUACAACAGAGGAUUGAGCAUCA	6.88
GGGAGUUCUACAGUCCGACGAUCAACAAACCUUGUGGUUAUCAGCAGAGCCUUCAGAGUUUCACCAUAACUCAGGCCUAGACAUUAUUCUAAAUGGCAACUGAUAUGUCUCAAGGUGAACUCAUCCAUCCUAAGGCACUCCCACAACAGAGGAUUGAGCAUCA	0.0892
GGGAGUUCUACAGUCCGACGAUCCCUCAGCUUUCUCCAACUGCCCUUUGUCCUCCAGUUUCUUUCUGCUGCCUCUGUCUUGUAUUUGUUUUGUUCUGUUUUCUCAUUGGGGGUAAAUGGUGCCUGGCACAUGGCAGGCACUCACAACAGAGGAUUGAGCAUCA	0.523
